# Results pooled from the literature.
# Compare with care: the assays were run in different laboratories. “And” joins repeats or separate records; there may be more than shown. ± marks the error that the study gave.
# Protein S100-A16: Protein S100-A16 (Rattus norvegicus, UniProt A0ACM8QDC9)
# Sequence of UniProt P06276 (whole entry, looked up): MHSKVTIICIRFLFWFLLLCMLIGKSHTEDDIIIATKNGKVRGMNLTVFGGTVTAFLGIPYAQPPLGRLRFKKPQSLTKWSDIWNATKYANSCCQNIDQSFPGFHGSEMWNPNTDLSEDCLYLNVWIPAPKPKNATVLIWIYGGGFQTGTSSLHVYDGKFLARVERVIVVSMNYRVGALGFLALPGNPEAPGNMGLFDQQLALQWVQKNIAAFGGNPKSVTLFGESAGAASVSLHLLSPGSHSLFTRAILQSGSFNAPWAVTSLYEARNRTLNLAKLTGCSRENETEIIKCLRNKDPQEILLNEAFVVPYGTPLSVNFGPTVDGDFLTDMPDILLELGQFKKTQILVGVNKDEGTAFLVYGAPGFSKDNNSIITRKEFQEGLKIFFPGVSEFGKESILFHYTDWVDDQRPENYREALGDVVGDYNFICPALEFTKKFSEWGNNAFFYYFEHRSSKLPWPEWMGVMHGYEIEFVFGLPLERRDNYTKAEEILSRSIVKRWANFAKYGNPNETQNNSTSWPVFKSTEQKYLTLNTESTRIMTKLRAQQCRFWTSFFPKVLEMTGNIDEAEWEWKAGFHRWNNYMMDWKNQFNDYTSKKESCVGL
# Sequence of UniProt P27361 (whole entry, looked up): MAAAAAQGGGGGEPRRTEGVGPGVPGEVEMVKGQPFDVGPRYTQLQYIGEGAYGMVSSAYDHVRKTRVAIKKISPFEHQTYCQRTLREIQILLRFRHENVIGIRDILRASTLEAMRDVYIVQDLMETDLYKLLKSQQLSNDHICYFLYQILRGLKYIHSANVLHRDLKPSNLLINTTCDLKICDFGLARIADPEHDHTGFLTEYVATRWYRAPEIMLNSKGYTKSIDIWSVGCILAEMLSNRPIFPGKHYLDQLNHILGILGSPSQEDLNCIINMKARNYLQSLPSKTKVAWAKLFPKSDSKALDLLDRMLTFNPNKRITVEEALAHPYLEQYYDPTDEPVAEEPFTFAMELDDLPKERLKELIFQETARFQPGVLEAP
# Sequence of UniProt P81908 (whole entry, looked up): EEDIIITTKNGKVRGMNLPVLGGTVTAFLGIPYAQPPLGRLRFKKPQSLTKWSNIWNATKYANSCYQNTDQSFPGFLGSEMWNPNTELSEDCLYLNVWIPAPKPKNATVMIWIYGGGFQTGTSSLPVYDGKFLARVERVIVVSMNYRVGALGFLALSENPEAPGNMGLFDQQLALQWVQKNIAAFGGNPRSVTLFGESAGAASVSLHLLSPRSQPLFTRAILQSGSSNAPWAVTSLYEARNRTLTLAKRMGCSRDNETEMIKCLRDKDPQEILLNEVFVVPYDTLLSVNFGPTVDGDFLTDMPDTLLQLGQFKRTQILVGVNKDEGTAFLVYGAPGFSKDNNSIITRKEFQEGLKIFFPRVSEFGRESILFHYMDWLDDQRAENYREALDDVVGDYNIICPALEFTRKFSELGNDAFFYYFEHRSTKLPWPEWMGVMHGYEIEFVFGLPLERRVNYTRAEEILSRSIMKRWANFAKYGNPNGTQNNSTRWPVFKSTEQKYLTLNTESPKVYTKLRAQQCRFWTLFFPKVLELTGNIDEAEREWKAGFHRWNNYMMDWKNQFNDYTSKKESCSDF
# Sequence of UniProt P62813 (whole entry, looked up): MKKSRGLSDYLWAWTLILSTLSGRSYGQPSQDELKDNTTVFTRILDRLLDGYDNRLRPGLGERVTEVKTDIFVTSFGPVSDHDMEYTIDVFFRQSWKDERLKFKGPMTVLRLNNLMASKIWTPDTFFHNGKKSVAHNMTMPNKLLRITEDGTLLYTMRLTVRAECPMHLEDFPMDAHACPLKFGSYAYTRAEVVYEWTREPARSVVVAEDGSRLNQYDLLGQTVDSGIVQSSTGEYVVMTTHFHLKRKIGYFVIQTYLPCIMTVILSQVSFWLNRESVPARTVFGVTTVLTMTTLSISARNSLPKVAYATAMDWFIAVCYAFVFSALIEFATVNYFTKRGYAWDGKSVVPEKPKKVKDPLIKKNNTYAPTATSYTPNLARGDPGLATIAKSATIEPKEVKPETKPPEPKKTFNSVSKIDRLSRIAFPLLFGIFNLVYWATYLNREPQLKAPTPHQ
# Sequence of UniProt Q00535 (whole entry, looked up): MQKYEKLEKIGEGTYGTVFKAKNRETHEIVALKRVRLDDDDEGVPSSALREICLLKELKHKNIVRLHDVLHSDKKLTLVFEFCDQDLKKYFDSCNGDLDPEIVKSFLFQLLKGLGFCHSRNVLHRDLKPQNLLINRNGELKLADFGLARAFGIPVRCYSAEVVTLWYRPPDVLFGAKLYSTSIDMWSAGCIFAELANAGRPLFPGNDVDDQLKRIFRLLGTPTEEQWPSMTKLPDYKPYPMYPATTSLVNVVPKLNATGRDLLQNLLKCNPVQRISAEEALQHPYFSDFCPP
# Sequence of UniProt O60883 (whole entry, looked up): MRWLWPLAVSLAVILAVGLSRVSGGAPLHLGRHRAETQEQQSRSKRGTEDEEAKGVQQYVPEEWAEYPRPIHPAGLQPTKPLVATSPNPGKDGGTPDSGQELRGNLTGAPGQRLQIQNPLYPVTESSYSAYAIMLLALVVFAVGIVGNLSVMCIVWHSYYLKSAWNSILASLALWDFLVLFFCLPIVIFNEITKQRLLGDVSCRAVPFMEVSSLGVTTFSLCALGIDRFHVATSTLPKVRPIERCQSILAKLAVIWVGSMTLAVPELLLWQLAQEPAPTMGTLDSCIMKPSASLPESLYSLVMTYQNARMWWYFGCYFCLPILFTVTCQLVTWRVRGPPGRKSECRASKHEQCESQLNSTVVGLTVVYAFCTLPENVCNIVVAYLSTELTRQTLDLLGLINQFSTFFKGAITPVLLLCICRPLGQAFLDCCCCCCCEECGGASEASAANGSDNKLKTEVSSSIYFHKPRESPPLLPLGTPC
# Sequence of UniProt P04756 (whole entry, looked up): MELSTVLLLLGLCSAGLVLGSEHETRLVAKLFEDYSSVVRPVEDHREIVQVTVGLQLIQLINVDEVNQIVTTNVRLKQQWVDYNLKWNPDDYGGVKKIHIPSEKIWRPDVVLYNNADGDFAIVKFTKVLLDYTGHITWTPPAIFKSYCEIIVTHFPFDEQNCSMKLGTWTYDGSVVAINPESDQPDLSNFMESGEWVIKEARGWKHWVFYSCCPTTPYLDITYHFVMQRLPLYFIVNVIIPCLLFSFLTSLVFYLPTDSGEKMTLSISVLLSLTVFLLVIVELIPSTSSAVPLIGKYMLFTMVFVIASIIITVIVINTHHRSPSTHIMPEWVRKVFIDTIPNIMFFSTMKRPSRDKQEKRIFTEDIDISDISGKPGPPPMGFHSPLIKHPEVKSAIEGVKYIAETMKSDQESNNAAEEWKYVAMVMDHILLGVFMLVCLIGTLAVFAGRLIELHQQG
# Sequence of UniProt O43704 (whole entry, looked up): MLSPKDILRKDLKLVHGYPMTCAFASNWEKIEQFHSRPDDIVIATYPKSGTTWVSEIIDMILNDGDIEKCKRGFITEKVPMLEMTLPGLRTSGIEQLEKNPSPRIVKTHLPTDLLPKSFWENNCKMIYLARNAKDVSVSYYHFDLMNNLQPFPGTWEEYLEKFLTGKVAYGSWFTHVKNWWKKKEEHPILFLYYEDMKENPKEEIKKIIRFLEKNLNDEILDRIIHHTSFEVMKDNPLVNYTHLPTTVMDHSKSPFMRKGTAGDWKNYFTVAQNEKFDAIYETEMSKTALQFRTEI
# Sequence of UniProt P63138 (whole entry, looked up): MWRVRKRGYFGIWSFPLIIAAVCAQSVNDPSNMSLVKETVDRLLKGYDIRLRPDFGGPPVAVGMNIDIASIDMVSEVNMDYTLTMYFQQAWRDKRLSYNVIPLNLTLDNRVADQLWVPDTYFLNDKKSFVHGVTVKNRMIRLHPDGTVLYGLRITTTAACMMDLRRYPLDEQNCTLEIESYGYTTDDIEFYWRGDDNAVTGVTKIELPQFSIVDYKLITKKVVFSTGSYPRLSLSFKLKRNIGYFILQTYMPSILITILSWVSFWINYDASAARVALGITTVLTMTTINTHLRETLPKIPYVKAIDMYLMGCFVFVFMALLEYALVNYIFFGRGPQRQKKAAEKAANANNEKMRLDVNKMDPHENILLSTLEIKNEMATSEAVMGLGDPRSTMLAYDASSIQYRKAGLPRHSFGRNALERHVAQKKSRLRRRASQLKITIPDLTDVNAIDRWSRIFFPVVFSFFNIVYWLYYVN
# Sequence of UniProt P02716 (whole entry, looked up): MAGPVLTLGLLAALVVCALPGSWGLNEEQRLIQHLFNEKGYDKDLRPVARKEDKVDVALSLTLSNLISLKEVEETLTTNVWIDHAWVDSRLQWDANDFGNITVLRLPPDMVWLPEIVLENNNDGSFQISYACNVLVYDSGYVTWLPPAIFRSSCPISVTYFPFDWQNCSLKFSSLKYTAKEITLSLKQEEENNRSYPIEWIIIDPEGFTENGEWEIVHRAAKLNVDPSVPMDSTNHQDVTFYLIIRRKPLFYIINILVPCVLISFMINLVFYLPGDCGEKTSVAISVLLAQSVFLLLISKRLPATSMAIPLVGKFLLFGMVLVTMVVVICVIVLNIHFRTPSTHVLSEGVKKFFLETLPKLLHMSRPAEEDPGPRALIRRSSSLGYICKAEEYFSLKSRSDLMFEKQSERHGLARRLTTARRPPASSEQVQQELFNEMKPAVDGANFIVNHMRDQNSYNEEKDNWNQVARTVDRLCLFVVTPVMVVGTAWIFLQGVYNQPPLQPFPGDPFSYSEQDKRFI
# Sequence of UniProt Q06151 (whole entry, unmodified, looked up): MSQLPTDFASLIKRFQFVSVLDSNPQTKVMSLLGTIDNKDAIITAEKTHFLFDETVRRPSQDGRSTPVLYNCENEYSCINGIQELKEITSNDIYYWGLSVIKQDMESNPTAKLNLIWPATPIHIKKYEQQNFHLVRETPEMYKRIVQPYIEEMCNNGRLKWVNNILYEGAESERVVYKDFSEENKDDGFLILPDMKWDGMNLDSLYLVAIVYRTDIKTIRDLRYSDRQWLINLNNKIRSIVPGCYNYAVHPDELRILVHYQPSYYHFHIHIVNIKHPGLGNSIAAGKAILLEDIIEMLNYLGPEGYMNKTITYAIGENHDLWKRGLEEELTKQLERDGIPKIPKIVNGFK
Compound,target or system,assay,system,setting,scale,measurement,result
CN1CCN(c2cc(-c3ccncc3)c(-c3ccc4ccccc4c3)nn2)CC1,"NMBR (Homo sapiens, UniProt P28336)","antagonist, FLIPR",,10 µM,,inhibition,25.7%
O=C(O)C(F)(F)C(F)(F)C(F)(F)C(F)(F)C(F)(F)C(F)(F)C(F)(F)F,"SLC22A12 (Homo sapiens, UniProt Q96S37)",substrate,HEK293 stably expressing,10 µM,,linear uptake duration,2.5 min
Nc1nc2c(ncn2[C@@H]2O[C@@H]3COP(=O)(O)O[C@H]4[C@@H](O)[C@H](n5cnc6c(=O)[nH]c(N)nc65)O[C@@H]4COP(=O)(O)O[C@H]3[C@H]2O)c(=O)[nH]1,"Cell cycle histidine kinase CckA, R374A; cytoplasmic region (Caulobacter vibrioides, UniProt Q9X688, R374A)",ITC,,"12 °C, together with: AMPPNP 5 mM",,-TΔS,-6.3 kcal/mol
CC[C@H](C)[C@@H]1NC(=O)[C@@H]2CCCN2C(=O)[C@H](CC(C)C)NC(=O)[C@H](CC(C)C)NC(=O)CNC(=O)[C@@H](NC(=O)[C@@H](NC(=O)[C@H](CC(=O)O)NC(=O)CNC(=O)[C@@H](NC(=O)[C@H](C)NC(=O)CNC(=O)[C@H](CCCCN)NC(=O)[C@H](CC(C)C)NC(=O)[C@H](CC(C)C)NC(=O)[C@H](CCCCN)NC(=O)CNC(=O)[C@@H](NC(=O)[C@@H](N)CC(C)C)C(C)C)C(C)C)C(C)C)CSSC[C@@H](C(=O)O)NC1=O,,"RNA-seq, refers to: Pim1","mouse, traumatic brain injury model, frontal cortex and hippocampus",dose not given,relative to: TBI alone,log2 fold change,-3.22
C[n+]1cn([C@@H]2O[C@H](COP(=O)([O-])OP(=O)(O)OP(=O)(O)OC[C@H]3O[C@@H](n4cnc5c(=O)[nH]c(N)nc54)[C@H](O)[C@@H]3O)[C@@H](O)[C@H]2O)c2nc(N)[nH]c(=O)c21,"m7GpppX diphosphatase (DCS1, Saccharomyces cerevisiae, UniProt Q06151, H268N)","binding, ITC",,,,ΔH second site,-13.4 kcal/mol
Oc1cc(Br)cc(Br)c1Oc1ccc(Br)cc1Br,"SULT1B1 (Homo sapiens, UniProt O43704)","sulfonation, substrate",,,,Vmax/Km,1850 µL/min/mg
COc1cc(Nc2ncc(F)c(Nc3ccc4c(n3)NC(=O)C(C)(C)O4)n2)cc(OC)c1OC,NMDA receptor phencyclidine site,,,,,IC50,> 10000 nM
Nc1nc2c(ncn2[C@@H]2O[C@H](COP(=O)(O)OP(=O)(O)OP(=O)(O)O)[C@@H](O)[C@H]2O)c(=O)[nH]1,"GTP 3',8-cyclase (moaA, Staphylococcus aureus, UniProt P69848, R17A)",isothermal titration calorimetry,,"concentration not given, 25 °C, R17A mutant, anaerobic",,binding entropy ΔS,16.3 cal/mol/K
CN1CCc2[nH]c3ccccc3c2CC1.O=C(O)/C=C/C(=O)O,"Chrna7 (Rattus norvegicus, UniProt Q05941)","ion current, inhibitor, two-electrode voltage clamp",Xenopus laevis oocytes,"3 µM, rat receptor, together with: acetylcholine 100 µM",,recovery time constant,8.6 ± 0.2 s
C=CCNCC(=O)O,"putA (Sinorhizobium meliloti, UniProt F7X6I3)",covalent inactivator,,23 °C,,KI,933000 ± 110000 nM
CC(COc1ccccc1)NC(C)C(O)c1ccc(O)cc1 (stereo not shown),"Cholinesterase (BCHE, Homo sapiens, UniProt P06276)",,,"concentration not given, Triton",,efficacy,-94.3 ± 10.2%
O=C(Nc1cccnn1)N1CCC(=Cc2cccc(Oc3ccc(C(F)(F)F)cn3)c2)CC1,Protein S100-A16,competitive ABPP with azido-FP probe,rat brain membrane fraction,"0.1 µM, unit not given",relative to: DMSO,probe labelling,-5
CC(C)(Cc1c[nH]c2ccccc12)NCC(O)COc1ccccc1C#N (stereo not shown),"Cholinesterase (BCHE, Homo sapiens, UniProt P06276)",,,"concentration not given, Triton",,efficacy,-80 ± 12.8%
COc1ccc(N2C(=O)N(c3c(C)cccc3Cl)Cc3cnc(Nc4ccc(C5CCN(C)CC5)cc4OC)nc32)nc1,"MAP3K7 (Homo sapiens, UniProt O43318)","kinase activity, inhibitor",,"0.5 µM, kinase TAK1-TAB1",,inhibition,2%
[2H]c1c([2H])c([C@]2([2H])CCCN2C(=O)C(C)(C)Oc2ccc3cn[nH]c3c2)c([2H])c([2H])c1C([2H])([2H])[2H],"CDK5 (Homo sapiens, UniProt Q00535)",KINOMEscan,,1 µM,relative to: DMSO control,remaining binding,98%
O=C(c1ccc(Cl)cc1)N1CCN2C(=O)N(OC(=O)N3CCOc4ccccc43)C(=O)C2C1 (stereo not shown),"Kallikrein-6 (Homo sapiens, UniProt Q92876)",MS-based ABPP,SW-620 conditioned medium,"10 µM, 1 h, 37 °C","relative to: compound over DMSO, lower = more inhibition",mean protein ratio,0.95
CC[N+](CC)(CC)CCOC(=O)C(C1CCCC1)C1CCCC1,"Cholinesterase (BCHE, Homo sapiens, UniProt P06276)",,,"concentration not given, Triton",,efficacy,-89.4 ± 2.95%
CN(C(=O)n1cnc(-c2ccc[n+]([O-])c2)c1)C1CCCCC1,"BDKRB1 (Homo sapiens, UniProt P46663)",radioligand binding,,"10 µM, together with: [3H]des-Arg10-kallidin",,inhibition,1%
CC[C@H](C)[C@H](NC(=O)[C@H](Cc1ccccc1)NC(=O)[C@H](CCC(=O)O)NC(=O)[C@H](CCCNC(=N)N)NC(=O)[C@H](C)NC(=O)[C@H](C)NC(=O)[C@H](CCC(N)=O)NC(=O)[C@H](CCC(=O)O)NC(=O)[C@H](CCC(=O)O)NC(=O)[C@H](CC(C)C)NC(=O)[C@H](Cc1ccc(O)cc1)NC(=O)[C@H](CO)NC(=O)[C@H](CO)NC(=O)[C@@H](NC(=O)[C@H](CC(=O)O)NC(=O)[C@H](CO)NC(=O)[C@@H](NC(=O)[C@H](Cc1ccccc1)NC(=O)[C@@H](NC(=O)CNC(=O)[C@H](CCC(=O)O)NC(=O)[C@H](C)NC(=O)CCc1c[nH]cn1)[C@@H](C)O)[C@@H](C)O)C(C)C)C(=O)N[C@@H](C)C(=O)N[C@@H](Cc1c[nH]c2ccccc12)C(=O)N[C@@H](CC(C)C)C(=O)N[C@H](C(=O)N[C@@H](CCCNC(=N)N)C(=O)NCC(=O)N[C@@H](CCCNC(=N)N)C(=O)N[C@@H](CCCCNC(=O)COCCOCCNC(=O)COCCOCCNC(=O)CC[C@H](NC(=O)CCCCCCCCCCCCCCCCC(=O)O)C(=O)O)C(=O)NCC(=O)NCC(=O)N[C@@H](CO)C(=O)N[C@@H](CCCCNc1c(NCCCCCN(O)C(=O)CCC(=O)NCCCCCN(O)C(=O)CCC(=O)NCCCCCN(O)C(C)=O)c(=O)c1=O)C(=O)O)C(C)C [zirconium-89 labelled],,ex vivo gamma counting,"rat, stomach","subcutaneous, 3 nmol/kg, 24 h, together with: [89Zr]-labelled peptide",,tissue uptake,0.22 %ID/g
CC(C)C[C@@H](C=O)NC(=O)[C@H](CC(C)C)NC(=O)[C@H](CC(C)C)NC(=O)OCc1ccccc1,"Gag-Pol polyprotein, integrase (gag-pol, Human immunodeficiency virus 1, UniProt P12497)","integrase multimerization, BiFC flow cytometry",,10 µM,relative to: DMSO,AUC ratio,1.39
Fc1ccc(Oc2ccnc3cc(Cl)cc(Cl)c23)cc1,"PPARG (Homo sapiens, UniProt P37231)","reporter gene, agonist, β-lactamase reporter",HEK293-H cells,freely dissolved concentration,,EC10,8.14 nM
COC(=O)[C@@]1(O)C[C@H]2O[C@]1(C)n1c3ccccc3c3c4c(c5c6ccccc6n2c5c31)C(=O)NC4,"MAPK3 (Homo sapiens, UniProt P27361)",ADP-Glo,,"251 nM, together with: MBP substrate",,kinase activity,41.1% and 22.6% and 47%
NCc1cc(=O)[nH]o1,"GABA-A receptor; alpha-1/beta-2/gamma-2 (Rattus norvegicus, UniProt P18508+P62813+P63138)","membrane potential, agonist, QP-DHM fluorescence",HEK293 expressing GABAA,10 µM,"relative to: 10 µM GABA, direction not given",agonist score,1.02
COc1cc2c3cc1Oc1cc(ccc1O)C[C@@H]1c4c(cc(OC)c(O)c4Oc4ccc(cc4)C[C@@H]3N(C)CC2)CC[N+]1(C)C,"Chrnd/Chrna1/Chrne (Mus musculus, UniProt P02716+P04756+P20782)",,mouse diaphragm,"0.04 µM, AChE intact",,free receptor reduction,50%
O=C(Nc1cnccc1Cl)N1CCN(Cc2ccc3c(c2)OC(F)(F)O3)CC1,Protein S100-A16,competitive ABPP with azido-FP probe,rat brain membrane fraction,"1 µM, unit not given",relative to: DMSO,probe labelling,-1.1
CCN(C)C(=O)Oc1ccc(CCC(=O)N2CCC(CCCc3ccccc3)CC2)cc1OC,"Cholinesterase (BCHE, Equus caballus, UniProt P81908)",Ellman,equine serum BuChE,,relative to: AChE IC50 over BuChE IC50,selectivity ratio,2
Nc1ccn([C@H]2C[C@H](O)[C@@H](COP(=O)(O)OP(=O)(O)OP(=O)(O)O)O2)c(=O)n1,"Gag-Pol polyprotein, reverse transcriptase (gag-pol, Human immunodeficiency virus type 1 group M subtype B, UniProt P04585, K653A)","nucleotide misincorporation, steady-state kinetics",,"K66A RT, together with: matched template/primer, template T",,kcat,0.0298 ± 0.0108 s⁻¹
CC[C@H](C)[C@H](NC(C)=O)C(=O)N[C@@H](CCC(=O)O)C(=O)N[C@H](C(=O)N[C@H](C=O)CC(=O)O)[C@@H](C)O,"Caspase-1 (CASP1, Homo sapiens, UniProt P29466)",,,,,Hill slope,-1.17
C[C@H]1CN(c2n[nH]c3nc(N[C@H]4CC[C@H](NS(=O)(=O)CCC(F)(F)F)CC4)ncc23)CCO1,"DDR1 (Homo sapiens, UniProt Q08345)","inhibitor, Kinobeads competition profiling",,0.16 µM,relative to: vehicle,relative abundance,1.08
C[C@@H]1NC(=O)N[C@@H]1CCCCCC(=O)N1CCN(C(=O)c2ccc(/C=C/c3n[nH]c4ccc(-c5ccc(S(=O)(=O)F)cc5)cc34)cc2)CC1,"ABL1 (Homo sapiens, UniProt P00519)",covalent inhibitor,recombinant protein,,,kinact/KI,23 M⁻¹ s⁻¹
COc1cc(N)c(Cl)cc1C(=O)NC1CN2CCC1CC2 (stereo not shown),"GPR37L1 (Homo sapiens, UniProt O60883)","β-arrestin recruitment, TANGO luminescence",,concentration not given,relative to: basal luminescence,log2 fold change,-0.312
CC(CC1c2ccccc2CCc2ccccc21)CN(C)C (stereo not shown),"Cholinesterase (BCHE, Homo sapiens, UniProt P06276)",,,"concentration not given, Triton",,efficacy,-75.8 ± 4.43%
CCN(C)C(=O)Oc1ccc(CCC(=O)N(CC)CC)cc1OC,"Cholinesterase (BCHE, Equus caballus, UniProt P81908)",Ellman,equine serum BuChE,,relative to: AChE IC50 over BuChE IC50,selectivity ratio,1.1
CO[C@H]1C[C@@H]2CC[C@@H](C)[C@@](O)(O2)C(=O)C(=O)N2CCCC[C@H]2C(=O)O[C@H]([C@H](C)C[C@@H]2CC[C@@H](OC(=O)NCCOCCOCCOCCOCCOCCOCCOCCOCCC(=O)N3CCc4cc(Cn5nc(-c6ccc7oc(N)nc7c6)c6c(N)ncnc65)ccc4C3)[C@H](OC)C2)C[C@@H](O)[C@H](C)/C=C(\C)[C@@H](O)[C@@H](OC)C(=O)[C@H](C)C[C@H](C)/C=C/C=C/C=C/1C,,,patients with advanced solid tumours,"intravenous, 10 mg weekly, grade 3 or higher",,maculopapular rash incidence,0%
Clc1ccc(-c2ccc(Cl)cc2Cl)cc1,"Androgen receptor (AR, Homo sapiens, UniProt P10275)","reporter gene, antagonist",,"24 h, together with: DHT 2 nM",,IC25,1400 nM
CCCCOP(=O)(O)C(C)=O,"dxs (Pseudomonas aeruginosa, UniProt Q9KGU7, R106A)",,,"concentration not given, variant enzyme",relative to: wild type,Ki fold change,11 fold and ~11 fold
CN(C(=O)n1cnc(-c2ccc[n+]([O-])c2)c1)C1CCCCC1,"Abhydrolase domain-containing protein 11 (Rattus norvegicus, UniProt D3ZXK4)","enzyme activity, ABPP","rat, brain","oral, 100 mg/kg/day, 7 days",relative to: vehicle,fold change,-2.8
CC1=C(C(=O)O)N2C(=O)[C@@H](NC(=O)[C@H](N)c3ccccc3)[C@H]2SC1,"Penicillin-binding protein 1A (pbpA, Streptococcus pneumoniae, UniProt Q8DR59)",inhibitor,,,,kinact/KI,220 ± 120 M⁻¹ s⁻¹
CC(=O)NC1CCN(c2ncnc3[nH]cc(-c4cccc(Cl)c4)c23)CC1,"LRRK2 (Homo sapiens, UniProt Q5S007)",NanoBRET,cells,,"relative to: PF-06447475, fold lower potency",potency ratio,> 13 fold
CC[C@@H](C)[C@@H](NC(=O)[C@@H](Cc1ccc(O)cc1)NC(=O)[C@H]1CCCN1C(=O)[C@@H](CCCNC(=N)N)NC(=O)[C@H](N)Cc1c[nH]cn1)C(=O)N[C@H](C)C(=O)N[C@H](Cc1c[nH]cn1)C(=O)N[C@H](CCCNC(=N)N)C(=O)N[C@H](CCCCNC(=O)c1cccc(S(=O)(=O)F)c1)C(=O)N[C@H](Cc1ccc(O)cc1)C(=O)N[C@H](CO)C(=O)N[C@H](Cc1ccccc1)C(N)=O,"Transferrin receptor protein 1 (Tfrc, Mus musculus, UniProt Q62351)",flow cytometry,RAW264.7,"24 h, pH 6, replicate 2, unit not given",relative to: 0 h,surface TFRC expression,0.827

# A few entries again:
Compound,target or system,assay,system,setting,scale,measurement,result
CN1CCc2[nH]c3ccccc3c2CC1.O=C(O)/C=C/C(=O)O,"Chrna7 (Rattus norvegicus, UniProt Q05941)","ion current, inhibitor, two-electrode voltage clamp",Xenopus laevis oocytes,"3 µM, rat receptor, together with: acetylcholine 100 µM",,recovery time constant,8.6 ± 0.2 s
C=CCNCC(=O)O,"putA (Sinorhizobium meliloti, UniProt F7X6I3)",covalent inactivator,,23 °C,,KI,933000 ± 110000 nM
CC(COc1ccccc1)NC(C)C(O)c1ccc(O)cc1 (stereo not shown),"Cholinesterase (BCHE, Homo sapiens, UniProt P06276)",,,"concentration not given, Triton",,efficacy,-94.3 ± 10.2%
O=C(Nc1cccnn1)N1CCC(=Cc2cccc(Oc3ccc(C(F)(F)F)cn3)c2)CC1,Protein S100-A16,competitive ABPP with azido-FP probe,rat brain membrane fraction,"0.1 µM, unit not given",relative to: DMSO,probe labelling,-5
